Assay results of several laboratories.
Numbered parts are unrelated; each lists some results of a single study. Substitutions count along the parent as printed.
Chain of UniProt O00506 (whole entry, looked up): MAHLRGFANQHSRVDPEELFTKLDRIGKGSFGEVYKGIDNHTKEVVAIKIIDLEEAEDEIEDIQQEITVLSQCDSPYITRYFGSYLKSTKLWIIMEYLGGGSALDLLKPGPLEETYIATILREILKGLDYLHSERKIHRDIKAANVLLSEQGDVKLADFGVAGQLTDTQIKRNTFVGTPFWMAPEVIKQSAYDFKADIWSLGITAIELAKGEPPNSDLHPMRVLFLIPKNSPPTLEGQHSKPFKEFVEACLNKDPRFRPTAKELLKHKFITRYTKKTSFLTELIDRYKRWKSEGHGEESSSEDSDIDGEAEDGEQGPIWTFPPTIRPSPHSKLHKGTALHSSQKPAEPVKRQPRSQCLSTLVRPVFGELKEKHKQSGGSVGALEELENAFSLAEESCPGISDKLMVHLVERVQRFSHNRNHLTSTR
Chain of UniProt Q15139 (whole entry, looked up): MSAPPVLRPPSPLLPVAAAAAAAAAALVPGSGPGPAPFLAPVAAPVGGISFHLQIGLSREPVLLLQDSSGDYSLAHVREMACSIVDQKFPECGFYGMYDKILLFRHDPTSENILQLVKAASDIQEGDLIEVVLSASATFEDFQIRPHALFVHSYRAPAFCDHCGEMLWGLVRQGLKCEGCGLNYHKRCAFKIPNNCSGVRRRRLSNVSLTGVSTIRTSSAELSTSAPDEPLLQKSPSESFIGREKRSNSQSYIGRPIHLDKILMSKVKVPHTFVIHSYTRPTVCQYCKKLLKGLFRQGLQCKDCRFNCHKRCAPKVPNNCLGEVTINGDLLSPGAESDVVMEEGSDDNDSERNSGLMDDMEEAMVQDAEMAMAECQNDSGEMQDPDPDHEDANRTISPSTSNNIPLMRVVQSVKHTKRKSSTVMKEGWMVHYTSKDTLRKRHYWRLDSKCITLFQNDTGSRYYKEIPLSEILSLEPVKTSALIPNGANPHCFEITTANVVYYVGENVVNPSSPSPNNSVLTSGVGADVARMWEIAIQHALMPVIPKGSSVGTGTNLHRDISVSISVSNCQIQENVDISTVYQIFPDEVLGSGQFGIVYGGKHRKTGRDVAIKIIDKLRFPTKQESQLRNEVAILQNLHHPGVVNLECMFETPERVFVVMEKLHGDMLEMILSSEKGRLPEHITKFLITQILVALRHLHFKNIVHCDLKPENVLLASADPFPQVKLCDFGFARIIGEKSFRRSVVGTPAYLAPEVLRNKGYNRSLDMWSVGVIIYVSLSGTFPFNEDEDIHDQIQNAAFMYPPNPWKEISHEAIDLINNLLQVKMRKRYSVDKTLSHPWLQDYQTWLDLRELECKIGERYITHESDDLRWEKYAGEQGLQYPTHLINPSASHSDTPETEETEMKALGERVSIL
Chain of UniProt Q9BXA7 (whole entry, looked up): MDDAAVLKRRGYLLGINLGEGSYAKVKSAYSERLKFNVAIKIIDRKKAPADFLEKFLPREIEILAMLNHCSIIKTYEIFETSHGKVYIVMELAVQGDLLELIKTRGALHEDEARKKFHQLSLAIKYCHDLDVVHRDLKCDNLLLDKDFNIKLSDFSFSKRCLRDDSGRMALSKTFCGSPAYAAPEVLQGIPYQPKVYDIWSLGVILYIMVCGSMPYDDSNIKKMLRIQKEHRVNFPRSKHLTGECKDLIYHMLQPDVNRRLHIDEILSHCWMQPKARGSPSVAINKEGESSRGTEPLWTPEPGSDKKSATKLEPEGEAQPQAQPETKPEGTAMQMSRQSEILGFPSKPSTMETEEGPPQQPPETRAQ
Chain of UniProt Q13163 (whole entry, looked up): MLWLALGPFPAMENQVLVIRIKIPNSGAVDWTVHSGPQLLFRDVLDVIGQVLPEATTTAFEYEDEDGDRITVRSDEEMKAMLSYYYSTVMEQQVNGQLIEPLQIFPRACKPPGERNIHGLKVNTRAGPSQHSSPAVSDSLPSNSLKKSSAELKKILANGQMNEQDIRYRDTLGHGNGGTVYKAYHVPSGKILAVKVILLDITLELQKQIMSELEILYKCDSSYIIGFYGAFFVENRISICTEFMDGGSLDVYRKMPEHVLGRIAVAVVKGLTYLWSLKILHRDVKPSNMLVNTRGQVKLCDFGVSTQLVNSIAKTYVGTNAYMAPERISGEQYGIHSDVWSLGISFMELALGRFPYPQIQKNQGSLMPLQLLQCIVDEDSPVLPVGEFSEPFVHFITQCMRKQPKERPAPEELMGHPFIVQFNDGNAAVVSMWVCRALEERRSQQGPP
Chain of UniProt P06239 (whole entry, looked up): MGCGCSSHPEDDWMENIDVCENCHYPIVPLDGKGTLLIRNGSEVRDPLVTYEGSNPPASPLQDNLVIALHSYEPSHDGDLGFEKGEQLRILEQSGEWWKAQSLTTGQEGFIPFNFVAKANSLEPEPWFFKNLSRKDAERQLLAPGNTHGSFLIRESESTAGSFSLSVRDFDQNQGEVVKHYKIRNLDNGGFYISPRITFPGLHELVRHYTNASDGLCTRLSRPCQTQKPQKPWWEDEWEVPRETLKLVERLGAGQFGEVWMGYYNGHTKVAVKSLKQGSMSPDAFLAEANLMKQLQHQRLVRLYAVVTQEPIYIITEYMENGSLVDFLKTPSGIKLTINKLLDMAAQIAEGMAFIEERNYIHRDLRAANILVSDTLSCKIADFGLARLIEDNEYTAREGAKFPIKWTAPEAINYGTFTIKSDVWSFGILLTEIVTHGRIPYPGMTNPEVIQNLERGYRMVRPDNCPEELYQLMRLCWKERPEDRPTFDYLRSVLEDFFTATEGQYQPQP
Chain of UniProt O95747 (whole entry, looked up): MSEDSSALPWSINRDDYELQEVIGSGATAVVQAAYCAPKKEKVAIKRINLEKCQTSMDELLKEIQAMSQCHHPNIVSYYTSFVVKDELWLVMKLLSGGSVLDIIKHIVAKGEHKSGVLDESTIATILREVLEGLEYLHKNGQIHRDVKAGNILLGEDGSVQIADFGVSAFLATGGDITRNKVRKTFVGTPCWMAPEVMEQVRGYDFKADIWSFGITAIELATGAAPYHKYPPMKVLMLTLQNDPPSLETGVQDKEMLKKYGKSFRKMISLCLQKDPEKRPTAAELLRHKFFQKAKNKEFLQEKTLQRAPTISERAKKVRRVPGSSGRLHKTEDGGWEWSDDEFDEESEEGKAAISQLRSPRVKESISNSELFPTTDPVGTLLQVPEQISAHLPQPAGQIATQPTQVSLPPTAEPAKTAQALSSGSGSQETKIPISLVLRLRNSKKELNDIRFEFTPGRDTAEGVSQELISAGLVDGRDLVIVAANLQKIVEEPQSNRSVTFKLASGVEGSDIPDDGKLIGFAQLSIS
Chain of UniProt Q9Y2U5 (whole entry, looked up): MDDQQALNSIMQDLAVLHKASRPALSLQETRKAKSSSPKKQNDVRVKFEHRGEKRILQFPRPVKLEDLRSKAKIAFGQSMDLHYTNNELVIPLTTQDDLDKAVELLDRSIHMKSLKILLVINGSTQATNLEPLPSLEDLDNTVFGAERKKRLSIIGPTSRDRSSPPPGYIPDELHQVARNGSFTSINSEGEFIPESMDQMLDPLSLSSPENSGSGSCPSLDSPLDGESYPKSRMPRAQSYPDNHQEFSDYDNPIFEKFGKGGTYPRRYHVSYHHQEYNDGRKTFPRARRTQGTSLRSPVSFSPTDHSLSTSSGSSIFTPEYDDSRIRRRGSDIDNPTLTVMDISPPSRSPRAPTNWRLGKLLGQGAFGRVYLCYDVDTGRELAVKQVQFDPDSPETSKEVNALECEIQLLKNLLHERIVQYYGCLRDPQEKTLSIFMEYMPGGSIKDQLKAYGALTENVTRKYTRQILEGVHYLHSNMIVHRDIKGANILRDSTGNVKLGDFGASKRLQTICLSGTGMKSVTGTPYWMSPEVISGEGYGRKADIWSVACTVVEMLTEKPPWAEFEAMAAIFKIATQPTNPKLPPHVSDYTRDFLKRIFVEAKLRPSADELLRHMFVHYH
Chain of UniProt P53779 (whole entry, looked up): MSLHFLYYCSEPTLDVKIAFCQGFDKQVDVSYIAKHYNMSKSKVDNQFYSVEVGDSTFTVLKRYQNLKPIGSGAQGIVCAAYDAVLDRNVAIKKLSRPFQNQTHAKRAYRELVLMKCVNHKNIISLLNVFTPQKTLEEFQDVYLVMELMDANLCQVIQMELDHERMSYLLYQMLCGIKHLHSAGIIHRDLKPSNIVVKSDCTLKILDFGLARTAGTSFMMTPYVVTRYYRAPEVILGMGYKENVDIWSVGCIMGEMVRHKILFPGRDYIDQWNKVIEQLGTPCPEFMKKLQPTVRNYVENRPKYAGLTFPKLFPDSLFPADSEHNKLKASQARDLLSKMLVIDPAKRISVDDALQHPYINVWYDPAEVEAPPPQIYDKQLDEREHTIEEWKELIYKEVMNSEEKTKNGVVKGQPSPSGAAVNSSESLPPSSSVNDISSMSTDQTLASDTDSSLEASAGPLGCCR

Series 1
Target: FOS, bZIP domain (human)
Technique: DHFR protein complementation
Sample: yeast
Notes: single substitutions, most at no-binding floor
Relative to: wild-type JUN-FOS pair
Direction: higher = stronger binding
Measurement: binding fitness
Parent: JUN, bZIP domain (human); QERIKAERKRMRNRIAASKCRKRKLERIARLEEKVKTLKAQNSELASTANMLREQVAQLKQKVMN; partner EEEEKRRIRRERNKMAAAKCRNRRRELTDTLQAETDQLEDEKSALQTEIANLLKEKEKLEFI
A46S: -0.0883 natural log
V56N: -0.916 natural log
Q41S: -1.16 natural log
L31V: -0.672 natural log
N42Y: -1.03 natural log
K39I: -0.583 natural log
A29K: -0.168 natural log
E44R: -0.152 natural log

Series 2
Target: Prothrombin, mature alpha-thrombin (F2, Homo sapiens, UniProt P00734)
Technique: aptamer microarray, sandwich
Molecule type: DNA with 2'F-ANA
Sample: in vitro
Tested at: 200 nM
Notes: whole 15-mer aptamer, many near background
Added: Cy3 exosite-II aptamer, 400 nM
Direction: higher = stronger binding
Measurement: mean fluorescence intensity
Oligonucleotide: GGTTGGTGTGGTTGG
2'F-ANA at 2 3 4 5 6 7 12 13: 111 a.u.
2'F-ANA at 1 2 3 4 5 9 13 14 15: 59.5 a.u.
2'F-ANA at 6 8 9 10 11 13 14: 85.8 a.u.
2'F-ANA at 5 6 7 8 9 11 12 13: 99 a.u.
2'F-ANA at 1 2 5 7 9 10 11: 51.3 a.u.
2'F-ANA at 2 5 6 7 9 13 14: 47 a.u.
2'F-ANA at 1 2 3 6 7 8 9 12 13 14 15: 92.3 a.u.
2'F-ANA at 3 6 8 13 14: 544 a.u.

Series 3
Target: Protein kinase C zeta type (PRKCZ, Homo sapiens, UniProt Q05513)
Chain of UniProt Q05513 (whole entry, looked up): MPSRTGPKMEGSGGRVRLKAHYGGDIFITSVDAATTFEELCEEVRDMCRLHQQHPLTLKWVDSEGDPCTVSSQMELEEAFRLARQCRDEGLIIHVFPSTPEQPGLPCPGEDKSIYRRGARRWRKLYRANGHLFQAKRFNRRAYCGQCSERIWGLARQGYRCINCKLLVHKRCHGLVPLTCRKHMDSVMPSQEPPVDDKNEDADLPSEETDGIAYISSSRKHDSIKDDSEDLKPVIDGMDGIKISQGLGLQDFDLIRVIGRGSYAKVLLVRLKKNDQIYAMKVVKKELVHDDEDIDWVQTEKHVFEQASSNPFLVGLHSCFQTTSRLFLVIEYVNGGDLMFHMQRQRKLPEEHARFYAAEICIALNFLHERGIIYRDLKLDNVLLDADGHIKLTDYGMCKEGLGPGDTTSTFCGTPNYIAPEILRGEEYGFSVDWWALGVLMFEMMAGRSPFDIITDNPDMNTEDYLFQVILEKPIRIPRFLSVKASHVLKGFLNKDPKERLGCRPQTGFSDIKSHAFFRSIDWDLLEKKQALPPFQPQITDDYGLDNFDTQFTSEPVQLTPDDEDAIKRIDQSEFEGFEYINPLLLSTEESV
Effect on: enzyme activity
Action: inhibitor
Tested at: 0.5 µM
Relative to: control
Measurement: remaining activity
CCOC(=O)c1c(C)[nH]c(/C=C2\C(=O)Nc3ccccc32)c1C: 97%
COc1ccc(CNC(=O)Nc2ncc([N+](=O)[O-])s2)cc1: 96.3%
COc1cc2ncnc(Nc3ccc(Oc4ccccc4)cc3)c2cc1OC: 100%
Cc1ccc(Nc2nccc(N(C)c3ccc4c(C)n(C)nc4c3)n2)cc1S(N)(=O)=O: 97.7%
COc1cc2ncnc(Nc3ccc(F)c(Cl)c3)c2cc1OCCCN1CCOCC1: 92.5%
Cn1sc(=O)n(Cc2ccccc2)c1=O: 101%
N#CC(C#N)=C(N)/C(C#N)=C/c1ccc(O)cc1: 105%
CN(C)c1ccc(C=C2C(=O)Nc3ccccc32)cc1: 112%
CC(C)[C@H](CO)Nc1nc(Nc2cc(N)cc(Cl)c2)c2ncn(C(C)C)c2n1: 101%
OCC(O)CCON=C1C(c2c(O)[nH]c3ccccc23)=Nc2ccccc21 (centres unmarked): 98.5%
O=C(O)c1ccc2c3c1cccc3c(=O)n1c3ccccc3nc21: 94.3%
O=S(=O)(c1cccc2cnccc12)N1CCCNCC1: 94.7%
Cc1nc(-c2ccccc2)c(-c2ccncc2)o1: 103%

Series 4
Compound: CN(c1ccnc(CNc2nc(Nc3ccc4c(c3)CC(=O)N4)ncc2C(F)(F)F)n1)S(C)(=O)=O
Effect on: cell-free assay
Technique: competition with immobilised ligand
Tested at: 1 µM
Measurement: remaining binding
Interleukin-1 receptor-associated kinase 4 (IRAK4, Homo sapiens, UniProt Q9NWZ3): 50%
Dual specificity mitogen-activated protein kinase kinase 5 (MAP2K5, Homo sapiens, UniProt Q13163): 48%
Serine/threonine-protein kinase 25 (STK25, Homo sapiens, UniProt O00506): 82%
Serine/threonine-protein kinase OSR1 (OXSR1, Homo sapiens, UniProt O95747): 86%
Fibroblast growth factor receptor 3 (FGFR3, Homo sapiens, UniProt P22607, G697C): 89%
Macrophage-stimulating protein receptor (MST1R, Homo sapiens, UniProt Q04912): 72%
Mitogen-activated protein kinase 10 (MAPK10, Homo sapiens, UniProt P53779): 56%
Phosphatidylinositol 4,5-bisphosphate 3-kinase catalytic subunit gamma isoform (PIK3CG, Homo sapiens, UniProt P48736): 100%
Serine/threonine-protein kinase pim-2 (PIM2, Homo sapiens, UniProt Q9P1W9): 100%
Serine/threonine-protein kinase D1 (PRKD1, Homo sapiens, UniProt Q15139): 100%
Atypical kinase COQ8B, mitochondrial (COQ8B, Homo sapiens, UniProt Q96D53): 84%
Mitogen-activated protein kinase kinase kinase 2 (MAP3K2, Homo sapiens, UniProt Q9Y2U5): 9.7%
Ribosomal protein S6 kinase beta-1 (RPS6KB1, Homo sapiens, UniProt P23443): 50%
Testis-specific serine/threonine-protein kinase 1 (TSSK1B, Homo sapiens, UniProt Q9BXA7): 56%
Tyrosine-protein kinase Lck (LCK, Homo sapiens, UniProt P06239): 46%
Mitogen-activated protein kinase kinase kinase 10 (MAP3K10, Homo sapiens, UniProt Q02779): 49%
Proto-oncogene tyrosine-protein kinase receptor Ret (RET, Homo sapiens, UniProt P07949, V804L): 21%
Serine/threonine-protein kinase 26 (STK26, Homo sapiens, UniProt Q9P289): 46%

A few entries again (series 2):
2'F-ANA at 2 3 4 5 6 7 12 13: 111 a.u.
2'F-ANA at 1 2 3 4 5 9 13 14 15: 59.5 a.u.
2'F-ANA at 6 8 9 10 11 13 14: 85.8 a.u.
